# Published values gathered from unrelated publications.
# Each numbered part is a random draw from the data of one study; scales do not carry over between parts. Positions count from the first letter of the parent shown.

# Set 1
# Target: Centromere-binding protein 1, full length, His-tagged (CBF1, Saccharomyces cerevisiae, UniProt P17106, residues 1-351)
# Sequence of UniProt P17106 (whole entry, looked up): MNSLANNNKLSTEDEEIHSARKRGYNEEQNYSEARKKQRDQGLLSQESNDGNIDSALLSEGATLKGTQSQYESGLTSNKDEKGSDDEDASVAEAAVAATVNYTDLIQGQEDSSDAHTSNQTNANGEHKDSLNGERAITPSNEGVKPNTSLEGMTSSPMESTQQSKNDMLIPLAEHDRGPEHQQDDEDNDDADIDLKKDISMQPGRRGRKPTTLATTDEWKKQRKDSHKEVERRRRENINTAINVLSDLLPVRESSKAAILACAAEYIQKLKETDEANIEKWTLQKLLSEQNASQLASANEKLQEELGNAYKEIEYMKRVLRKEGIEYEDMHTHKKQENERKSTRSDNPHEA
# Method: competition protein-binding microarray
# Form: double-stranded DNA, one strand shown
# Medium: in vitro
# Tested at: 2 µM
# Setting: whole 60-bp probe, lowest competitor level
# Together with: Pho4 competitor, 0.05 µM
# Reading: higher = stronger binding
# All sequences stand within: … GTCTTGATTCGCTTGACGCTGCTG
Strand,fluorescence intensity [a.u.]
CGGGGTTAAGTTTGTCACCCTACTTGCTTGCAGCAG,75.1
GTTTTGCTAGGTAACCACGTTGGTCTAGAAATCGCA,115
TGCGCAACAACTTGTCACGTGACTTTATGTCTAGAA,31300
AATCCAATATTGAAAAACGTGAGTACGCAGAGGAGA,226
CGTCCTAGCGATTGACGAGTGGGTGCCATGAGGAAG,68
CTTCTGTAAATTTGAAGAGTGGGTGGACGCGCCCCG,84.6
TTGGTGCTTTCTTTGCACGTTCTGCCAAAGTGTTTC,124
AAAGCGGTAATTTGAAAAGTGGGTGCAGATATCTAT,70.9

# Set 2
# Target: TAR DNA-binding protein 43, full length, His tag (TARDBP, Homo sapiens, UniProt Q13148, residues 1-414)
# Method: RNA Bind-n-Seq
# Form: RNA
# Medium: in vitro
# Tested at: 20 nM
# Setting: 6-mer, flanks averaged, single round
# Together with: 150 mM LiCl
# Reference: input library
# Reading: higher = stronger binding
Strand,6-mer enrichment (R)
GAGAAU,1.03
UAUACG,0.877
AUAGAG,0.956
ACAGUU,0.889
UUUUAG,1.18
GUCGGG,1.22
CUGACC,0.882
UUUCUA,1.01

# Set 3
# Target: FOS, bZIP domain (human)
# Method: DHFR protein complementation
# Medium: yeast
# Setting: single substitutions, most at no-binding floor
# Reference: wild-type JUN-FOS pair
# Reading: higher = stronger binding
# Starting sequence: JUN, bZIP domain (human); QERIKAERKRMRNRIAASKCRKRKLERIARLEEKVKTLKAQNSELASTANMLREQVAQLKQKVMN; partner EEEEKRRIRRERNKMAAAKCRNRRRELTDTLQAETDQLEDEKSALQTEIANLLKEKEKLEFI
Change,binding fitness [natural log]
V56D,-1.47
E44W,-0.587
A29D,-0.124
A40H,-0.064
Q41T,-0.0894
V35M,-0.195
L31K,-0.716
E54H,-0.146

# Other studies, line by line
# Starting sequence: viral docking peptide; KGVKRKLFAEDSS
Change,target,test,test system,conditions,how to read,quantity,result
S12G,"CCNA1, cyclin fold, Cln2 fusion (human)","yeast growth competition, sequencing",yeast,weak parent motif,"reference: not given, higher = stronger binding",normalised enrichment score,0.878
